# Measurements from different studies.
# ± gives the spread as reported.
# ABO G235S/G268A/L266M/R176G: Histo-blood group ABO system transferase (ABO, Homo sapiens, UniProt P16442, G235S/G268A/L266M/R176G)
# ADORA1: Adenosine receptor A1 (ADORA1, Homo sapiens, UniProt P30542)
# RIPK1: Receptor-interacting serine/threonine-protein kinase 1 (RIPK1, Homo sapiens, UniProt Q13546)
# Bone morphogenetic protein 2: Bone morphogenetic protein 2 (Homo sapiens, UniProt P12643)
SMILES,target,assay,test system,conditions,Kd [µM]
COc1cc(-c2nc3ccc(C(=O)NCCCN(C)C)cc3n2C2CCC2)cc(OC)c1OC,"BMPR1A (Homo sapiens, UniProt P36894)","binding, TR-FRET",,,0.541
CC[C@H](C)[C@H](NC(=O)[C@@H](NC(=O)[C@H](CS)NC(=O)[C@H](CCSC)NC(C)=O)[C@@H](C)O)C(=O)N[C@@H](CC(=O)O)C(=O)N[C@@H](Cc1ccc(F)cc1)C(=O)N[C@@H](CC(=O)O)C(=O)N[C@@H](CCC(=O)O)C(=O)N[C@@H](Cc1ccc(O)cc1)C(=O)N[C@@H](CCCNC(=N)N)C(=O)N[C@@H](Cc1ccc(F)cc1)C(=O)N[C@@H](CCCNC(=N)N)C(=O)N[C@@H](CCCCN)C(=O)N[C@H](C(N)=O)[C@@H](C)O,"Breast cancer type 1 susceptibility protein, tandem BRCT domains (BRCA1, Homo sapiens, UniProt P38398)","binding, ITC",thioredoxin-BRCT fusion,"pH 7.4, 25 °C",3.7
C=CCCCCCCO[C@@H]1O[C@H](CO)[C@@H](O[C@@H]2O[C@H](CO)[C@H](O)[C@H](O)[C@H]2O[C@@H]2O[C@@H](C)[C@@H](O)[C@@H](O)[C@@H]2O)[C@H](O)[C@H]1NC(C)=O,ABO G235S/G268A/L266M/R176G,methyl-TROSY NMR titration lineshape analysis,,apo enzyme,291 ± 6
O=C(NCc1ccco1)c1nn[nH]c1Nc1ccccc1,"MAPK10 (Homo sapiens, UniProt P53779)","binding, mass spectrometry",,,21
N=C(N)NCCC[C@H](NC(=O)[C@H](CS)NC(=O)[C@H](Cc1ccc(O)cc1)NC(=O)[C@H](Cc1c[nH]c2ccccc12)NC(=O)[C@H](CCCNC(=N)N)NC(=O)[C@H](Cc1c[nH]c2ccccc12)NC(=O)CNC(=O)[C@H](Cc1c[nH]cn1)NC(=O)CNC(=O)CN)C(N)=O,HIV RRE IB RNA,fluorescein-labelled RNA titration,,1 mM TCEP,9 ± 1
CCNC(=O)[C@H]1O[C@@H](n2cnc3c(NCCCCNC(=O)CCCCCNC(=O)COc4ccc(/C=C/C5=[N+]6C(=Cc7ccc(-c8cccs8)n7[B-]6(F)F)C=C5)cc4)ncnc32)[C@H](O)[C@@H]1O,ADORA1,radioligand binding,CHO-A1,"apparent, from IC50, with: [3H]DPCPX",1.17
Cc1cc(N2CC[C@@](C#N)(C3(C)CC3)C2=O)cc(C(=O)NCc2cc(F)cc(-c3cnn(C)c3)c2)n1,"Bifunctional glutamate/proline--tRNA ligase, prolyl-tRNA synthetase domain (EPRS1, Homo sapiens, UniProt P07814)","binding, microscale thermophoresis",,,0.124
COc1cc2nc(NC(=O)C3CC3)sc2cc1Oc1ccc(F)c(NC(=O)Cc2cccc(C(F)(F)F)c2)c1,RIPK1,"binding, competition with immobilised ligand",,,0.14
O=C(N[C@@H](Cc1ccc(OCCCCC2CCNCC2)cc1)C(=O)O)c1nc2ccccc2o1,"Albumin (ALB, Homo sapiens, UniProt P02768)",binding,human plasma,"ODE model from unbound fraction, 639 µM albumin",6.11
CC(=O)N[C@@H]1[C@@H](O[C@@H]2O[C@H](C(=O)O)[C@@H](O[C@@H]3O[C@H](CO)[C@@H](O)[C@H](O[C@@H]4O[C@H](C(=O)O)[C@@H](OS(=O)(=O)O)[C@H](OS(=O)(=O)O)[C@H]4OS(=O)(=O)O)[C@H]3NC(C)=O)[C@H](OS(=O)(=O)O)[C@H]2OS(=O)(=O)O)[C@H](O)[C@@H](CO)O[C@H]1N=[N+]=[N-],Bone morphogenetic protein 2,"ligand displacement, FP",,,33.5
C=CC(=O)Oc1ccc(/C=C/C(=O)c2c(OC)cc3c(c2OC(=O)C=C)CCC(C)(C)O3)cc1,"DGKZ (Homo sapiens, UniProt Q13574)","binding, SPR",,,6.33
O=C(Cc1cccc(C(F)(F)F)c1)Nc1cc(Oc2cc3sc(NC(=O)C4CC4)nc3cc2Br)ccc1F,RIPK1,"binding, competition with immobilised ligand",,,0.18
CCCn1c(=O)c2[nH]c(-c3ccc(OCC(=O)NCCNS(=O)(=O)c4cccc5c(N(C)C)cccc45)cc3)nc2n(CCC)c1=O,ADORA1,"CRE reporter gene, antagonist",CHO-A1,"Gs-mediated enhancement, with: NECA and forskolin",0.049
CNc1ccccc1C(=O)O[C@H]1C[C@H](n2cnc3c(N)ncnc32)O[C@@H]1COP(=O)(O)OP(=O)(O)O,"Unconventional myosin-Va (Gallus gallus, UniProt Q02440, D297C/G292C/I296C/S293C/V295G)",stopped-flow FRET,,"15 °C, with: EDTA 4 mM",9.73 ± 1.23
CC(=O)N[C@H]1[C@@H](OP(=O)(O)OP(=O)(O)OC[C@H]2O[C@@H](n3ccc(=O)[nH]c3=O)[C@H](O)[C@@H]2O)O[C@H](CO)[C@@H](O)[C@@H]1O,ABO G235S/G268A/L266M/R176G,"binding, NMR",,,3300
Cc1ccc(Oc2nc3cc(-c4ccc5c(ccn5C)c4)c(Cl)cc3[nH]2)cc1C(=O)O,"PRKAA1/PRKAB1, phosphorylated; with gamma1 (Homo sapiens, UniProt Q13131+Q9Y478, S108A)",biolayer interferometry,,AMPK complex α1β1(S108A)γ1,8.9
CC(=O)c1cnc(N)nc1N1CC[C@H]1c1nn2ccc(Cl)c2c(=O)n1-c1ccccc1,"Phosphatidylinositol 4,5-bisphosphate 3-kinase catalytic subunit alpha isoform, with p85 (PIK3CA, Homo sapiens, UniProt P42336)","binding, SPR",,,2.42
CC(=O)N[C@@H]1[C@@H](O[C@@H]2O[C@H](C(=O)O)[C@@H](O[C@@H]3O[C@H](COS(=O)(=O)O)[C@@H](OS(=O)(=O)O)[C@H](O[C@@H]4O[C@H](C(=O)O)[C@@H](OS(=O)(=O)O)[C@H](OS(=O)(=O)O)[C@H]4OS(=O)(=O)O)[C@H]3NC(C)=O)[C@H](OS(=O)(=O)O)[C@H]2OS(=O)(=O)O)[C@H](OS(=O)(=O)O)[C@@H](COS(=O)(=O)O)O[C@H]1n1ccnn1,Bone morphogenetic protein 2,"ligand displacement, FP",,,2.81
CCCn1c(=O)c2[nH]c(-c3ccc(OCC(=O)NCCNC(=O)CCCCCNC(=O)CCCCCNS(=O)(=O)c4cccc5c(N(C)C)cccc45)cc3)nc2n(CCC)c1=O,ADORA1,"CRE reporter gene, antagonist, parallel shift",CHO-A1,"Gi-mediated inhibition, with: NECA and forskolin",0.0724
CC(=O)N[C@@H]1[C@@H](O[C@@H]2O[C@H](C(=O)O)[C@@H](O[C@@H]3O[C@H](COS(=O)(=O)O)[C@@H](OS(=O)(=O)O)[C@H](O[C@@H]4O[C@H](C(=O)O)[C@@H](OS(=O)(=O)O)[C@H](OS(=O)(=O)O)[C@H]4OS(=O)(=O)O)[C@H]3NC(C)=O)[C@H](OS(=O)(=O)O)[C@H]2OS(=O)(=O)O)[C@H](OS(=O)(=O)O)[C@@H](COS(=O)(=O)O)O[C@H]1SCCOCCOCCSSCCOCCOCCS[C@@H]1O[C@H](COS(=O)(=O)O)[C@@H](OS(=O)(=O)O)[C@H](O[C@@H]2O[C@H](C(=O)O)[C@@H](O[C@@H]3O[C@H](COS(=O)(=O)O)[C@@H](OS(=O)(=O)O)[C@H](O[C@@H]4O[C@H](C(=O)O)[C@@H](OS(=O)(=O)O)[C@H](OS(=O)(=O)O)[C@H]4OS(=O)(=O)O)[C@H]3NC(C)=O)[C@H](OS(=O)(=O)O)[C@H]2OS(=O)(=O)O)[C@H]1NC(C)=O,Bone morphogenetic protein 2,"ligand displacement, FP",,,0.039
COc1cncc(-c2cc(F)cc(CNC(=O)c3cc(N4CC[C@@](C#N)(C5CC5)C4=O)cc(C)n3)c2)c1,"EPRS1 (Homo sapiens, UniProt P07814)","binding, MST",,,0.0047
CCCn1c(=O)c2[nH]c(-c3ccc(OCC(=O)NCCNC(=O)CCCCCCCNS(=O)(=O)c4cccc5c(N(C)C)cccc45)cc3)nc2n(CCC)c1=O,ADORA1,"CRE reporter gene, antagonist, parallel shift",CHO-A1,"Gi-mediated inhibition, with: NECA and forskolin",0.0372
CCOc1ccc2nc(Sc3nc(Nc4ccc(I)cc4)nc(N4CCOCC4)n3)sc2c1,"PIKFYVE (Homo sapiens, UniProt Q9Y2I7)","binding, KINOMEscan",,,0.034
CC(=O)N[C@@H](CCCCN)C(=O)NCCCCCC(=O)N[C@H](C(=O)N[C@@H](CO)C(=O)N[C@@H](Cc1ccccc1)C(=O)N[C@]1(C)CCCCCCCCCCC[C@@](C)(C(=O)N[C@@H](CCC(=O)O)C(=O)N[C@@H](CC(N)=O)C(=O)N[C@@H](Cc2ccccc2)C(N)=O)NC(=O)[C@H](CC(C)C)NC(=O)[C@H](CC(C)C)NC(=O)[C@H](C)NC(=O)[C@H](Cc2c[nH]c3ccccc23)NC(=O)[C@H](Cc2ccc(O)cc2)NC(=O)[C@H](CCC(=O)O)NC1=O)[C@@H](C)O,"MDM2 (Homo sapiens, UniProt Q00987)","cell-free assay, FP",,pH 7.4,0.114
CCCCCCCCO[C@@H]1O[C@H](CO)[C@H](O)C[C@H]1O[C@@H]1O[C@@H](C)[C@@H](O)[C@@H](O)[C@@H]1O,ABO G235S/G268A/L266M/R176G,methyl-TROSY NMR titration lineshape analysis,,apo enzyme,420 ± 8
O=C(Cc1cccc(C(F)(F)F)c1)Nc1cc(Oc2c(F)cc3nc(NC(=O)C4CC4)sc3c2Cl)ccc1F,RIPK1,"binding, competition with immobilised ligand",,,0.037

# Excerpt of the above:
SMILES,target,assay,test system,conditions,Kd [µM]
CC[C@H](C)[C@H](NC(=O)[C@@H](NC(=O)[C@H](CS)NC(=O)[C@H](CCSC)NC(C)=O)[C@@H](C)O)C(=O)N[C@@H](CC(=O)O)C(=O)N[C@@H](Cc1ccc(F)cc1)C(=O)N[C@@H](CC(=O)O)C(=O)N[C@@H](CCC(=O)O)C(=O)N[C@@H](Cc1ccc(O)cc1)C(=O)N[C@@H](CCCNC(=N)N)C(=O)N[C@@H](Cc1ccc(F)cc1)C(=O)N[C@@H](CCCNC(=N)N)C(=O)N[C@@H](CCCCN)C(=O)N[C@H](C(N)=O)[C@@H](C)O,"Breast cancer type 1 susceptibility protein, tandem BRCT domains (BRCA1, Homo sapiens, UniProt P38398)","binding, ITC",thioredoxin-BRCT fusion,"pH 7.4, 25 °C",3.7
C=CCCCCCCO[C@@H]1O[C@H](CO)[C@@H](O[C@@H]2O[C@H](CO)[C@H](O)[C@H](O)[C@H]2O[C@@H]2O[C@@H](C)[C@@H](O)[C@@H](O)[C@@H]2O)[C@H](O)[C@H]1NC(C)=O,ABO G235S/G268A/L266M/R176G,methyl-TROSY NMR titration lineshape analysis,,apo enzyme,291 ± 6
O=C(NCc1ccco1)c1nn[nH]c1Nc1ccccc1,"MAPK10 (Homo sapiens, UniProt P53779)","binding, mass spectrometry",,,21
N=C(N)NCCC[C@H](NC(=O)[C@H](CS)NC(=O)[C@H](Cc1ccc(O)cc1)NC(=O)[C@H](Cc1c[nH]c2ccccc12)NC(=O)[C@H](CCCNC(=N)N)NC(=O)[C@H](Cc1c[nH]c2ccccc12)NC(=O)CNC(=O)[C@H](Cc1c[nH]cn1)NC(=O)CNC(=O)CN)C(N)=O,HIV RRE IB RNA,fluorescein-labelled RNA titration,,1 mM TCEP,9 ± 1
